Assay results pooled from the literature.
Each line is one published result; not all experiments were run side by side. Numbers after ± are the reported error.
CDC42BPG: Serine/threonine-protein kinase MRCK gamma (CDC42BPG, Homo sapiens, UniProt Q6DT37)
Chain of UniProt Q6DT37 (whole entry, looked up): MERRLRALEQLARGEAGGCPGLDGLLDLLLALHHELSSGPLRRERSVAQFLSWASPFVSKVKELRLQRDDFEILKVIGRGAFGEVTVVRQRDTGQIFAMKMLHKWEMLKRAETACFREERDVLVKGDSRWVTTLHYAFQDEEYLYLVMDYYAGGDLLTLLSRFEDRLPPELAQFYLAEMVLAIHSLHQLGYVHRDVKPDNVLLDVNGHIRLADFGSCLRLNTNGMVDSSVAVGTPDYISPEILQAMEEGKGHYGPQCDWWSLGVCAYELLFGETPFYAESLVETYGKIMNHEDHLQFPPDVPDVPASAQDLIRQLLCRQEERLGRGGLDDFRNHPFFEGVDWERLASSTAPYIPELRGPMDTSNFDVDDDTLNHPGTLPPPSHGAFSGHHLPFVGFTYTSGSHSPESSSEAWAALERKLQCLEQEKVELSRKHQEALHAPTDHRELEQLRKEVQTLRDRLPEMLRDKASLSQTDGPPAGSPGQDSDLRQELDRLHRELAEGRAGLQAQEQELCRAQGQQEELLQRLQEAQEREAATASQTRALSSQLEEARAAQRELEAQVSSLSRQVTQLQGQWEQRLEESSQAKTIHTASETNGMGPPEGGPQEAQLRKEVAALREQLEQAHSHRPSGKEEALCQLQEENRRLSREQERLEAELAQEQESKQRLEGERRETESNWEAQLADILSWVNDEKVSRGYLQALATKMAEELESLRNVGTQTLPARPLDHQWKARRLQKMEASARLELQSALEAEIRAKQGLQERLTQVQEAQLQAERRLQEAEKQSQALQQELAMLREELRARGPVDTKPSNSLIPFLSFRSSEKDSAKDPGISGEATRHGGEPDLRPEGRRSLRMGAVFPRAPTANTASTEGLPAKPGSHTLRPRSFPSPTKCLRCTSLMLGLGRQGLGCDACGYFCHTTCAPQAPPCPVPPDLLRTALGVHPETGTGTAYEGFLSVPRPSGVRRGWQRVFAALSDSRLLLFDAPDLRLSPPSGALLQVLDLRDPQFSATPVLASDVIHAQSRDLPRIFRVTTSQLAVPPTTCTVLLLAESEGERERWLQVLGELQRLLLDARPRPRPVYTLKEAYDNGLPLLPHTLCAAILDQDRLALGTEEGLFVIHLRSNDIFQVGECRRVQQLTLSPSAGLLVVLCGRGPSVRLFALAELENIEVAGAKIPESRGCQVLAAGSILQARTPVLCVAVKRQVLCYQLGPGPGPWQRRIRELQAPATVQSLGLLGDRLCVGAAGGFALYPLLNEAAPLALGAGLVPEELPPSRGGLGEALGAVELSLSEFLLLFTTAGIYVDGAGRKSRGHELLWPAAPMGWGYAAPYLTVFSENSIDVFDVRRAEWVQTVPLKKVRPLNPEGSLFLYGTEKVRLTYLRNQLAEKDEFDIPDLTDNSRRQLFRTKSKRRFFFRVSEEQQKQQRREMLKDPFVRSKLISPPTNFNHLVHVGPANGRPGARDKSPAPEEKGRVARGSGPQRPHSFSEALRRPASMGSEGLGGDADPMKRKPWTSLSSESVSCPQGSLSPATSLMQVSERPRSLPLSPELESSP
ache: Acetylcholinesterase (ache, Electrophorus electricus, UniProt O42275)
Chain of UniProt O42275 (whole entry, looked up): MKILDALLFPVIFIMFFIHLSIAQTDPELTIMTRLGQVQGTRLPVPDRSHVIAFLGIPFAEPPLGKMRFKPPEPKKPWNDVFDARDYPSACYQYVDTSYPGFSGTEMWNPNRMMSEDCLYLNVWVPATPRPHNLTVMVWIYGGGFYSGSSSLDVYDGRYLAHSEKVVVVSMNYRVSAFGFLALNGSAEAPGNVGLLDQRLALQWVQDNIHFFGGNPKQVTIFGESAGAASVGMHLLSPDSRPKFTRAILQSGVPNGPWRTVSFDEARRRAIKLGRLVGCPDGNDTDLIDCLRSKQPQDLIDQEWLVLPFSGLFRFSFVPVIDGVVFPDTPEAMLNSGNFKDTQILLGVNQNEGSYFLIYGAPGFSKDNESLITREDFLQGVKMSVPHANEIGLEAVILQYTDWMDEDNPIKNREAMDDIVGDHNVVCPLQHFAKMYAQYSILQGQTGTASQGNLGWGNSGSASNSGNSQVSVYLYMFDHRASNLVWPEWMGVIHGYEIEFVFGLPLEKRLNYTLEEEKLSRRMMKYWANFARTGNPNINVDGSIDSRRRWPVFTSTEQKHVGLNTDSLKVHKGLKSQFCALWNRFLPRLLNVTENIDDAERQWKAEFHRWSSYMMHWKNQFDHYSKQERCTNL
Chain of UniProt Q9UGM1 (whole entry, looked up): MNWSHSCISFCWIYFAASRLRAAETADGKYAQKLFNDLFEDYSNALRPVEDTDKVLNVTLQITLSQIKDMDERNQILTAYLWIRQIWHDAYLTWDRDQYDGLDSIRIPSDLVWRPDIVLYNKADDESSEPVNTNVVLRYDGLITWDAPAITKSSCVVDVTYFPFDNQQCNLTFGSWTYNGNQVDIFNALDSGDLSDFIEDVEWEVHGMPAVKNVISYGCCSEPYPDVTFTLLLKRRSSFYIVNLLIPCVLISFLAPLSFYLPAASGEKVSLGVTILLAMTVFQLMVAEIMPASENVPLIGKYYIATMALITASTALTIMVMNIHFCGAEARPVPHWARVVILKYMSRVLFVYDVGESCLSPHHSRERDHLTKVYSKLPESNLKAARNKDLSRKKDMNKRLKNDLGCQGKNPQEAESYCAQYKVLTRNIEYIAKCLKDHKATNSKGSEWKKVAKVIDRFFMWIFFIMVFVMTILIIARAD
Chain of UniProt Q86TI2 (whole entry, looked up): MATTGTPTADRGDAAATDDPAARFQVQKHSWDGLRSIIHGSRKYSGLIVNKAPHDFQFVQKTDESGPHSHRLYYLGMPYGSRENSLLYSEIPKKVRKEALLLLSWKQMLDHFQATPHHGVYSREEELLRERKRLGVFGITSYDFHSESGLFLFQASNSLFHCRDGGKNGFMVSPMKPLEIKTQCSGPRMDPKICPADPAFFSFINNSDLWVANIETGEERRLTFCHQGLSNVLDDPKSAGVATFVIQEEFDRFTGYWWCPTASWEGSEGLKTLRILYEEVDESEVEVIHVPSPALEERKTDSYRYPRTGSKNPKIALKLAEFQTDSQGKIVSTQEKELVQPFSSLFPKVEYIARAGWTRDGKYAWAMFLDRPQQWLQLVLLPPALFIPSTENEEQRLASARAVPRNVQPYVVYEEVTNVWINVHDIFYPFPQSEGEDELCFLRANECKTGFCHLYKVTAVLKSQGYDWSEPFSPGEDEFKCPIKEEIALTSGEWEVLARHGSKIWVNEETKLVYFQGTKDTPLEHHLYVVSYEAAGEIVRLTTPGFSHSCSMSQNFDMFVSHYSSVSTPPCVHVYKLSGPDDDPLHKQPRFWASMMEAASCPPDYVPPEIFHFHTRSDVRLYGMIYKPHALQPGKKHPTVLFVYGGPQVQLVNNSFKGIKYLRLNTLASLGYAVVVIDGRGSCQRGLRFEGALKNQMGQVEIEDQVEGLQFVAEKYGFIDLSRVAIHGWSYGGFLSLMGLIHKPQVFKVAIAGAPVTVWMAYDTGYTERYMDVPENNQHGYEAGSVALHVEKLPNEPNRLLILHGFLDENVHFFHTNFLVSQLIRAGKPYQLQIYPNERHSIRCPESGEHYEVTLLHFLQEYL
Chain of UniProt O00222 (whole entry, looked up): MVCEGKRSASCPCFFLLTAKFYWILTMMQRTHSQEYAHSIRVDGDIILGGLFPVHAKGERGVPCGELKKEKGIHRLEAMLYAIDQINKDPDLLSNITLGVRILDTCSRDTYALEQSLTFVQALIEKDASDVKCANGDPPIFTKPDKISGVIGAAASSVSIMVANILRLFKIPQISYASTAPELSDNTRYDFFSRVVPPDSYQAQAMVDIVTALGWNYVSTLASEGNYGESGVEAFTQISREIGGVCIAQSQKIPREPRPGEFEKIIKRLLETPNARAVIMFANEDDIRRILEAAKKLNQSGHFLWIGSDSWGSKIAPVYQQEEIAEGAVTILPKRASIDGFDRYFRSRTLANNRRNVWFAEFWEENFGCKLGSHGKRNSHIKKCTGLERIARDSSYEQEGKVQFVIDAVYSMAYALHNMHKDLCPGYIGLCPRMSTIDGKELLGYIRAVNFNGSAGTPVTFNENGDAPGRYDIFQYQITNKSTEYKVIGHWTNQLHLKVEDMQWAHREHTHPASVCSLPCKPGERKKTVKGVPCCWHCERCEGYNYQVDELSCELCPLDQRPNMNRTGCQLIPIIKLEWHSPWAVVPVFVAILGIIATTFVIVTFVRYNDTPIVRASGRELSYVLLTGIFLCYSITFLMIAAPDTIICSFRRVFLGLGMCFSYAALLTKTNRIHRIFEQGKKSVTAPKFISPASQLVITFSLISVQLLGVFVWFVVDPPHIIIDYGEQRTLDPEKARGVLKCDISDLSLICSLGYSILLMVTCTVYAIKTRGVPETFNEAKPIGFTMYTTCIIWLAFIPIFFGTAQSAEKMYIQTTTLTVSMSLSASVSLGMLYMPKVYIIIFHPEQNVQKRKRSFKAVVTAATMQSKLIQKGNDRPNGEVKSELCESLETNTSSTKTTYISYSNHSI
Chain of UniProt P35410 (whole entry, looked up): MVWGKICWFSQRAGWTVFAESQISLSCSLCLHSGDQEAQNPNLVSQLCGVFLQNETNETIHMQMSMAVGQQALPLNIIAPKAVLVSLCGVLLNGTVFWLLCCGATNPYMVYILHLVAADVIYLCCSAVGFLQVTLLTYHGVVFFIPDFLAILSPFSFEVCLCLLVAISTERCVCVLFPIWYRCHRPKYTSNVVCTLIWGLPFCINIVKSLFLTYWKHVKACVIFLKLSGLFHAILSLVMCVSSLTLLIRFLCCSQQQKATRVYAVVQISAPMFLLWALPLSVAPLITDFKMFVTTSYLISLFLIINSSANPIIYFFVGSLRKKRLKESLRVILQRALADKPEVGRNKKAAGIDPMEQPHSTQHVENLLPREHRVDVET
Chain of UniProt Q9ZMY2 (whole entry, looked up): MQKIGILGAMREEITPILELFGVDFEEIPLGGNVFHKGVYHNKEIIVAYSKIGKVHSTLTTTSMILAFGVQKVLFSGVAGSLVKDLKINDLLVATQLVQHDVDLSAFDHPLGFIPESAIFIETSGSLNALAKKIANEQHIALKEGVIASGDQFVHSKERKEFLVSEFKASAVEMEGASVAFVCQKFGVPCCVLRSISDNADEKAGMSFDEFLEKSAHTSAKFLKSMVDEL

COc1ncccc1-c1cnn2ccc(N3CCN(C(=O)OC(C)C)CC3)nc12  remaining binding (Ribosomal protein S6 kinase alpha-6, N-terminal kinase domain (RPS6KA6, Homo sapiens, UniProt Q9UK32); KINOMEscan binding; 1 µM; relative to: untreated control): 96%
O=C(O)CC(F)(F)C(=O)N1N=C(c2c(-c3ccc(Cl)cc3)c3ccccc3[nH]c2=O)C[C@H]1c1ccc(Cl)cc1  potency reduction (rat GluN1a mutant NMDA receptor; TEVC; Xenopus oocytes; concentration not given; relative to: wild type): 8 fold
O=C(c1ccc(Cl)cc1)N1CCN2C(=O)N(OC(=O)N3CCOc4ccccc43)C(=O)C2C1 (stereo not shown)  median ratio (DPP9 (Homo sapiens, UniProt Q86TI2); enzyme activity, inhibitor, MS-based ABPP; SW-620 conditioned medium; 10 µM, 1 h, 37 °C; relative to: compound over DMSO, lower = stronger inhibition): 1.17
C/C1=C2/[N-][C@H]([C@H](CC(N)=O)[C@@]2(C)CCC(=O)NC[C@@H](C)OP(=O)([O-])O[C@H]2[C@@H](O)[C@@H](n3cnc4cc(C)c(C)cc43)O[C@@H]2CO)[C@]2(C)N=C(/C(C)=C3N=C(/C=C4N=C1[C@@H](CCC(N)=O)C\4(C)C)[C@@H](CCC(N)=O)[C@]\3(C)CC(N)=O)[C@@H](CCC(N)=O)[C@]2(C)CC(N)=O.[CH3-].[Co+3]  kobs (MMACHC (Homo sapiens, UniProt Q9Y4U1); demethylation, substrate; added: glutathione): 0.6 min⁻¹
CCN(CC)CCCC[C@H](NC(=O)[C@H](CC(C)C)NC(=O)[C@H](C)NC(=O)[C@H](Cc1ccccc1)NC(=O)c1ccc(C(C)(C)C)cc1)C(=O)N[C@@H](CO)C(=O)OC  specific binding (ADORA1 (Homo sapiens, UniProt P30542); antagonist, radioligand binding; 10 µM; relative to: control binding): 96.3%
Cc1cn([C@H]2C[C@H](O)[C@@H](COP(=O)(O)Oc3ccc([N+](=O)[O-])cc3)O2)c(=O)[nH]c1=O  Km (Autotaxin (ENPP2, Homo sapiens, UniProt Q13822); phosphodiesterase activity, substrate): 1400 ± 100 µM
COc1ccc(N2C(=O)N(c3c(C)cccc3Cl)Cc3cnc(Nc4ccc(C5CCN(C)CC5)cc4OC)nc32)nc1  inhibition (PIM1 (Homo sapiens, UniProt P11309); kinase activity; 0.5 µM): 3%
CC=O  Km increase (ADH1 (Saccharomyces cerevisiae, UniProt P00330, H49Q); enzyme activity, substrate; pH 7.3; relative to: wild type): 16 fold
O=C(O)Cc1c[nH]cn1  normalised MST signal (SLC6A6 (Homo sapiens, UniProt P31641, Y138A); binding, microscale thermophoresis; 15.6 µM, room temperature, added: 50 nM labelled protein; higher = more binding): 0.0283
CC(C)C[C@@H]1NC(=O)[C@H](CC(=O)O)NC(=O)[C@@H]2CCCN2C(=O)[C@@H](NC(=S)Nc2ccc3c(c2)C(=O)OC32c3ccc(O)cc3Oc3cc(O)ccc32)CSCc2cccc(c2)CSC[C@@H](C(N)=O)NC1=O  log2 fold change (Kelch-like protein 20 (Homo sapiens, UniProt Q9Y2M5); binding, pull-down proteomics; PC-3 lysates; concentration not given; relative to: control probe): 11
CNS(=O)(=O)C(F)(F)C(F)(F)C(F)(F)C(F)(F)C(F)(F)C(F)(F)C(F)(F)C(F)(F)F  binding fold change (FABP1 (Homo sapiens, UniProt P07148); affinity selection mass spectrometry; 100 nM, added: pooled compounds; relative to: other proteins): 74.9
CCC[N+]1(CC)CCN(c2ccc(C#N)cc2)CC1.[I-]  maximal response (CHRNA9 (Homo sapiens, UniProt Q9UGM1); agonist, two-electrode voltage clamp; Xenopus laevis oocytes; alpha9 expressed alone, with RAPSYN, unit not given; relative to: acetylcholine maximum): 0.97 ± 0.06
Cc1nn(C)cc1-c1nc2c(N3CCN(Cc4ccc(Cl)cc4)CC3)c(Cl)cnc2[nH]1  remaining binding (CDC42BPG; binding, KINOMEscan; 1 µM): 100%
CC[C@@H](C)[C@@H](NC(=O)[C@@H](Cc1ccc(O)cc1)NC(=O)[C@H]1CCCN1C(=O)[C@@H](CCCNC(=N)N)NC(=O)[C@H](N)Cc1c[nH]cn1)C(=O)N[C@H](C)C(=O)N[C@H](Cc1c[nH]cn1)C(=O)N[C@H](CCCNC(=N)N)C(=O)N[C@H](CCCCNC(=O)c1cccc(S(=O)(=O)F)c1)C(=O)N[C@H](Cc1ccc(O)cc1)C(=O)N[C@H](CO)C(=O)N[C@H](Cc1ccccc1)C(N)=O  surface TFRC expression (Transferrin receptor protein 1 (Tfrc, Mus musculus, UniProt Q62351); flow cytometry; RAW264.7; 48 h, pH 6, replicate 3, unit not given; relative to: 0 h): 0.994
CCOC(=O)CC(SP(=O)(OC)OC)C(=O)OCC (stereo not shown)  remaining activity (uncharacterized protein (Anopheles coluzzii, UniProt A0A6E8VQK1); enzyme activity, inhibitor; Sf9 cell homogenate; 0.004587 µM, 0.1667 h, added: α-naphthyl acetate substrate; relative to: no inhibitor): 101%
CC[C@H](C)[C@H](NC(=O)[C@H](CCC(N)=O)NC(=O)[C@@H](NC(=O)[C@@H]1CCCN1C(=O)[C@@H](NC(=O)[C@H](CO)NC(=O)[C@H](Cc1ccccc1)NC(=O)[C@@H]1CCCN1C(=O)[C@H](CCC(N)=O)NC(=O)[C@@H](N)CCSC)[C@@H](C)CC)C(C)C)C(=O)N[C@H](C(=O)N[C@@H](CC(C)C)C(=O)N[C@@H](CCC(N)=O)C(=O)NCC(=O)N[C@@H](CO)C(=O)N[C@@H](CCCNC(=N)N)C(=O)N[C@@H](CCCNC(=N)N)C(=O)N[C@@H](CCCNC(=N)N)C(=O)N[C@@H](CCC(N)=O)C(=O)NCC(=O)N[C@@H](CCCNC(=N)N)C(N)=O)[C@@H](C)O  Hill coefficient (Kcnma1 (Mus musculus, UniProt Q08460); ion current, blocker, inside-out patch clamp; Xenopus oocytes; +100 mV, added: 10 µM cytosolic Ca2+): 1.34
O=c1cc(CSc2ccc(N=Cc3ccccc3)cc2)occ1O  bimolecular quenching constant (PPO3 (Agaricus bisporus, UniProt C7FF04); fluorescence quenching): 3.08e+13 M⁻¹ s⁻¹
COc1cc(F)cc2c(N3CCN4c5ccccc5NCC4C3)c(C#N)nnc12 (stereo not shown)  efficacy (GRM8 (Homo sapiens, UniProt O00222); positive allosteric modulator; added: glutamate; relative to: glutamate maximum): 68%
Clc1ccc(-c2ccc(Cl)cc2Cl)cc1  EC25 (Estrogen receptor (ESR1, Homo sapiens, UniProt P03372); reporter gene, agonist; T47D.luc; 24 h; relative to: estradiol): 15 µM
O=C(O)COP(=O)(O)O  Ki ratio (TPI1 (Saccharomyces cerevisiae, UniProt P00942, S211G/Y208T); enzyme activity, competitive inhibitor, GPDH/NADH-coupled; pH 5.7, 25 °C, ionic strength 0.1 NaCl, added: glyceraldehyde 3-phosphate substrate; relative to: mutant over wild type): 23
CN1CCN(c2cc(-c3ccncc3)c(-c3ccc4ccccc4c3)nn2)CC1  activation (DRD5 (Homo sapiens, UniProt P21918); agonist, FLIPR; 12.5 µM): -1.1%
O=C(CF)NC1C(O)CC(OC2C(O)C(CO)OC(Oc3ccc([N+](=O)[O-])cc3)C2O)(C(=O)O)OC1C(O)C(O)CO (stereo not shown)  kcat (Sialidase-2 (Homo sapiens, UniProt Q9Y3R4); substrate; 10 min, pH 5.0, 37 °C): 0.27 ± 0.01 s⁻¹
O=C(NNC(=O)c1csnn1)c1ccc(Cl)cc1  remaining activity (Acetyl-CoA synthetase (Cryptococcus neoformans, UniProt J9VFT1); 48.9 nM): 98.5%
Nc1ccc(O)c(C(=O)O)c1  polyphosphate synthesis (ppk (Escherichia coli, UniProt P0A7B1, D230N); inhibitor; 1 mM; relative to: DMSO): inhibited
C[C@H]1CN(c2n[nH]c3nc(N[C@H]4CC[C@H](NS(=O)(=O)CCC(F)(F)F)CC4)ncc23)CCO1  relative abundance (Crk-like protein (Homo sapiens, UniProt P46109); competitor, Kinobeads competition; human cell extract; 20 µM; relative to: vehicle): 1.15
CN1CCc2[nH]c3ccccc3c2CC1.O=C(O)/C=C/C(=O)O  recovery time constant (Nicotinic acetylcholine receptor alpha9/alpha10 (Rattus norvegicus, UniProt P43144+Q9JLB5); ion current, inhibitor, two-electrode voltage clamp; Xenopus laevis oocytes; 3 µM, rat receptor, added: acetylcholine 10 µM): 9.4 ± 0.7 s
O=C(O)C(/C=C/c1c(Cl)cccc1Cl)=N\Nc1nc(-c2ccc(Br)cc2)cs1  selectivity index (ache; Ellman; relative to: IC50 BChE over IC50 AChE): 12.9
COc1ccccc1CCN1CCN(CCc2ccccc2)CC1  maximal inhibition (Slc18a2 (Rattus norvegicus, UniProt Q01827); [3H]dopamine uptake, inhibitor; rat striatal vesicles): 100%
Cc1cc(N)c2ccccc2[n+]1CCCCCCCCCC[n+]1c(C)cc(N)c2ccccc21  Hill slope (ache; enzyme activity, inhibitor, Amplex Red): 0.87
COc1cc2nccc(Oc3ccc(NC(=O)c4cc5c(n(-c6ccccc6)c4=O)CCCC5=O)nc3)c2cc1OC  selectivity ratio (FGR (Homo sapiens, UniProt P09769); cell viability, CellTiter-Glo; Ba/F3 expressing recombinant kinase; relative to: FGR IC50 over AXL IC50): > 100
O=C(Cc1ccccc1)N[C@H]1CCOC1=O  Emax (Regulatory protein SdiA (sdiA, Escherichia coli, UniProt P07026)): 106%
CSC[C@H]1CN(Cc2c[nH]c3c(N)ncnc23)C[C@@H]1O  k3 (Aminodeoxyfutalosine nucleosidase (Helicobacter pylori, UniProt Q9ZMY2); forward isomerization rate): 0.16 ± 0.09 min⁻¹
CCOC(=O)COc1ccc2c(=O)c3ccccc3oc2c1  reaction velocity (ache; enzyme activity; 0.42 µM, added: substrate 0.86 mM; higher = faster reaction): 0.0011 a.u.
CC[C@H](CO)Nc1nc(NCc2ccc(-c3ccccn3)cc2)c2ncn(C(C)C)c2n1  binding score (DYRK1B (Homo sapiens, UniProt Q9Y463); KINOMEscan competition binding; 10 µM, primary screen; direction not given): 4.8
[2H]c1c([2H])c([C@]2([2H])CCCN2C(=O)C(C)(C)Oc2ccc3cn[nH]c3c2)c([2H])c([2H])c1C([2H])([2H])[2H]  remaining binding (CDC42BPG; KINOMEscan; 1 µM; relative to: DMSO control): 91%
COc1cc(N)c(Cl)cc1C(=O)NC1CN2CCC1CC2 (stereo not shown)  log2 fold change (Mas-related G-protein coupled receptor MRG (MAS1L, Homo sapiens, UniProt P35410); β-arrestin recruitment, TANGO luminescence, refers to: MAS1L; concentration not given; relative to: basal luminescence): 0.177
COc1cc(/C=C/c2ccc(O)cc2)cc(OC)c1  ∆H (O-methyltransferase (Sorghum bicolor, UniProt A0A1B6PFV1, W279A); isothermal titration calorimetry; added: RSV): -8.53 ± 0.155 kcal/mol

A few entries again:
CNS(=O)(=O)C(F)(F)C(F)(F)C(F)(F)C(F)(F)C(F)(F)C(F)(F)C(F)(F)C(F)(F)F  binding fold change (FABP1 (Homo sapiens, UniProt P07148); affinity selection mass spectrometry; 100 nM, added: pooled compounds; relative to: other proteins): 74.9
O=C(O)C(/C=C/c1c(Cl)cccc1Cl)=N\Nc1nc(-c2ccc(Br)cc2)cs1  selectivity index (ache; Ellman; relative to: IC50 BChE over IC50 AChE): 12.9
O=c1cc(CSc2ccc(N=Cc3ccccc3)cc2)occ1O  bimolecular quenching constant (PPO3 (Agaricus bisporus, UniProt C7FF04); fluorescence quenching): 3.08e+13 M⁻¹ s⁻¹
